Experimental data collected from several papers.
A part holds a random share of what one study measured. Positions count from the first letter of the parent shown.

Sample 1 — method: protein binding microarray; form: double-stranded DNA, one strand shown; sample: in vitro; tested at: not given; reference: not given; reading: higher = stronger binding; endpoint: E-score
Target: Histone acetyltransferase KAT6A, both winged helices, GST fusion (KAT6A, Homo sapiens, UniProt Q92794, residues 1-181)
Notes: 8-mer, flanks averaged, mean of 2 arrays, mostly near background
Construct (chain): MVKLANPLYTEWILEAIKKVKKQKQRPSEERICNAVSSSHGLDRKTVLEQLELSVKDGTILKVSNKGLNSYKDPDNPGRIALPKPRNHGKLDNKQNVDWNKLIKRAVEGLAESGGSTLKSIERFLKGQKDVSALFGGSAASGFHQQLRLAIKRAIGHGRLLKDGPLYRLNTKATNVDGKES
CGAGCCTC: 0.0113
TCCACCAA: -0.256
CCCAATTA: -0.113
AACCCATG: -0.132
ACCTTACT: -0.218
AGAAAGAT: -0.168
CGTCTAGC: 0.0476
AAAGGCTA: -0.223
AGCCGCTC: 0.301
ACGAATTG: -0.15
ACACGCGA: 0.207
ATACGGAG: 0.137
AGCCGGAT: 0.0985
AAATGCGC: 0.296
GGTTATAA: 0.0229
AGCAACGC: 0.15
AGGTCTGC: -0.0459
AGTTGTAT: -0.0769

Sample 2 — method: RNA Bind-n-Seq; form: RNA; sample: in vitro; tested at: 100 nM; reference: input RNA pool; reading: higher = stronger binding; endpoint: bound/input enrichment
Target: RING finger protein unkempt homolog, zinc fingers 1-6, SBP tag (UNK, Homo sapiens, UniProt Q9C0B0, residues 30-357)
Sequence of UniProt Q9C0B0 (30-357, looked up): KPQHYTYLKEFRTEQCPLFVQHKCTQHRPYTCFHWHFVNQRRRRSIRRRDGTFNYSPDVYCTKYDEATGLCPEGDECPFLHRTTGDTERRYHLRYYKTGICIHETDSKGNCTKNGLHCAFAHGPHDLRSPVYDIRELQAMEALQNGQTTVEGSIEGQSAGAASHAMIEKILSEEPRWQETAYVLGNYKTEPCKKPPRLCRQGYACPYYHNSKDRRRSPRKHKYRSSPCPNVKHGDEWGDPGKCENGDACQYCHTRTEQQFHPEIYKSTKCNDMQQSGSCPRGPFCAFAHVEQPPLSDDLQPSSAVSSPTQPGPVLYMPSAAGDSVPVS
Notes: RNA with constant flanks, vertebrate orthologous sites, ends assumed
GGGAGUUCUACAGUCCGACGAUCGUGACUUUGGACGUCCGCUCAGCCGGGUUGCAGAAGCCGCUUGGUGUGUGUCCCGUGCUCGUUCUCCUGUCUCUGGAGGUAGGCCUCUGCCGCAAACAUGCUCCGUCAGAUCAUCGGGCACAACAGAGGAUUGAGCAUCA: 0.277 ratio
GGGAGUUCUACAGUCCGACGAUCUCGGGUGUCCCUGUGGGGUGCUGUCGGCCCCUUAGAGUCGUUUGAUUUGUGACCUUGACAUAAUAGAUAGGCUUGUGGUUUUUUUAAUUUAAAGAUAUUAAGACUUAAUUCACUAAAAUUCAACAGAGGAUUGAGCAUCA: 0.609 ratio
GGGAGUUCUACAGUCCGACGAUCGAGCUAAAGGAGUUAGCAUCUUUAUUUUUGUAUCAAAGAUAAAGGUUAUUUUGAAACUAUUAGGAUUUUUACACAAUUCUGAAAUCUGUUGCUUUUGUAAACAAAUUGUUUGAUCUUAGUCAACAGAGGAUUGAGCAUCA: 0.443 ratio
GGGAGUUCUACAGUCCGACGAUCCACAUCCGGUGAUAUUUGGCCUGGCCUUUCGGCUUAUGAUAAUAGUCCCAGAUCACCCCAUAGUCCUUCACCUAUUGCUACACCACCUAGUCAGAGUUCAUCUUGCUCUGAUGCUCCCAUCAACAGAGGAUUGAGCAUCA: 0.792 ratio
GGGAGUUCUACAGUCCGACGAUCUAUGAUUAUGAAAUUCUAACAGAUUUUUAAUGUUUAAUUUCCCCUGACAUAUAAAGACCUUUUUUUUUUCCAGGCAGAUAAUUCAGAGUGUGUGCACAUGUUACAAAAGAUGACUACCAUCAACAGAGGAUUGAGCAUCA: 0.397 ratio
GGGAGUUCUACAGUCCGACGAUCUUUUAAGGUUUUUUAAUUUAUUUUUCGUUUUCUUUUGGGGGUAAAGUUUGCUCUACCAAAUAGUGAUCGUAACAAACUGAUCUGUUAUGGAUGUUGCUAUAGUGACAUGCAAUUAUAUAUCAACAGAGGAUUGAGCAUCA: 0.971 ratio
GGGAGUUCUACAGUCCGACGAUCCCUGGAUAUCAGUUAGAAUGGGUUCUUCUUCUACUUCUCUCACAAGGGAAAAAGCCCCAAUAGAUUCCUUACACAUCUGAUGAUACUGUUCUGUCUCAUUUUCUGUUUUUACAUAGGCAUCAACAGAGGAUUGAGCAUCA: 0.504 ratio
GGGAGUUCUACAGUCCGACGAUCUGUUUUGUACAGGACCUUCCUCUGUACCAGUUUGUUGUGGUUAUAAAGCAAUUAGCAAAUCAGCUUACAUUUGUAUUUAUUUUCUGUCCCAUACUUUUCUCUGCCUCAUGUUUUUUUUUUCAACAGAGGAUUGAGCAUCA: 0.759 ratio

Sample 3 — target: NFE2L1, bZIP domain (human); method: DHFR protein complementation; sample: yeast; reference: wild-type JUN-FOS pair; reading: higher = stronger binding; endpoint: binding fitness
Notes: single substitutions, most at no-binding floor
Starting sequence: JUN, bZIP domain (human); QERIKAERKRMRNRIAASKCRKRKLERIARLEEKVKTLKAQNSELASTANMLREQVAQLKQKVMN; partner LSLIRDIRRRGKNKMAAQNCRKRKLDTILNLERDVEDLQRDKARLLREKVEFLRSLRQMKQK
K34S: -1.39 natural log
L52R: -1.53 natural log
A29K: -1.12 natural log
I28S: -1.42 natural log
E32C: -1.54 natural log
A29I: -1.32 natural log
A49H: -1.41 natural log
V35A: -1.33 natural log
A40W: -1.46 natural log
A29P: -1.52 natural log
L52A: -1.45 natural log
L52M: -1.51 natural log
I28G: -1.44 natural log
E44G: -1.46 natural log
K36G: -1.49 natural log

Sample 4 — method: protein-binding microarray; form: hairpin DNA; sample: in vitro; tested at: not given; reference: not given; reading: higher = stronger binding; endpoint: median fluorescence
Target: Cyclic AMP-responsive element-binding protein 1, full length (CREB1, Homo sapiens, UniProt P16220, residues 1-327)
Sequence of UniProt P16220 (whole entry, looked up): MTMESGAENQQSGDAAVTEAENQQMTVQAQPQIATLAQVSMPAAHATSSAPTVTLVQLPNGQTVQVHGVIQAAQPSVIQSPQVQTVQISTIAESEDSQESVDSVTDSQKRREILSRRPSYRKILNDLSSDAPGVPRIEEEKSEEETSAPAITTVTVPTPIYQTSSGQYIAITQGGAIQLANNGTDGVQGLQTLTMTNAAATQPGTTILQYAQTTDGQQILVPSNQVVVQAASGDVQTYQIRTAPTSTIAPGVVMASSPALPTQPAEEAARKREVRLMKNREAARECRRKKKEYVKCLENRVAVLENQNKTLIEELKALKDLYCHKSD
Notes: whole hairpin DNA, median over replicate spots
GAGGCCGACGACGCGGTGCCTCCTGGCACCGCGTCGTCGGCCTCACACTC (5mC at 9 14 29 35): 4950 a.u.
GAGGCCGACGACGTCCGGCCTCCTGGCCGGACGTCGTCGGCCTCACACTC (5mC at 9 15 16 28 35): 3090 a.u.
GAGGCCGGCTGACCGCAGCCTCCTGGCTGCGGTCAGCCGGCCTCACACTC: 2790 a.u.
GAGGCCGACGAGGTCGTGCCTCCTGGCACGACCTCGTCGGCCTCACACTC (5mC at 9 15 29 33 35): 2530 a.u.
GAGGCCGCGGACGTCGTGCCTCCTGGCACGACGTCCGCGGCCTCACACTC (5mC at 15 29 35 36): 3330 a.u.
GAGGCCGGATGACGGCAGCCTCCTGGCTGCCGTCATCCGGCCTCACACTC (5mC at 30): 4500 a.u.
GAGGCCGGCTCACGTCAGCCTCCTGGCTGACGTGAGCCGGCCTCACACTC (5mC at 11): 4380 a.u.
GAGGCCGGCTGAAGTCAGCCTCCTGGCTGACTTCAGCCGGCCTCACACTC: 2510 a.u.
GAGGCCGGCTGGCGTCAGCCTCCTGGCTGACGCCAGCCGGCCTCACACTC: 3360 a.u.
GAGGCCGGATGACCTCAGCCTCCTGGCTGAGGTCATCCGGCCTCACACTC: 3140 a.u.
GAGGCCGGATGACCTCAGCCTCCTGGCTGAGGTCATCCGGCCTCACACTC (5mC at 14): 2620 a.u.
GAGGCCGCCTGACGTCAGCCTCCTGGCTGACGTCAGGCGGCCTCACACTC: 9290 a.u.
GAGGCCAGATGACGTCAGCCTCCTGGCTGACGTCATCTGGCCTCACACTC: 20600 a.u.

Sample 5 — target: CCNA1, cyclin fold, Cln2 fusion (human); method: yeast growth competition, sequencing; sample: yeast; notes: weak parent motif; reference: not given; reading: higher = stronger binding; endpoint: normalised enrichment score
Starting sequence: FOXM1 docking peptide (human); PHLARPIKVESPP; partner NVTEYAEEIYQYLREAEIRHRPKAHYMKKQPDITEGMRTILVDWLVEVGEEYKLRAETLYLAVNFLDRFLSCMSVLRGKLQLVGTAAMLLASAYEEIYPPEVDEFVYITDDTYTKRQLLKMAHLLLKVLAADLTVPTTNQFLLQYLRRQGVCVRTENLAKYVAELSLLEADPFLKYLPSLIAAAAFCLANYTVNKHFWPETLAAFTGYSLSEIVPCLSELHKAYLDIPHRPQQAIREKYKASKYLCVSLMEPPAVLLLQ
PHLARPIAVESPP [K8A]: 0.00828
PHLARAIKVESPP [P6A]: 0.0407
PHLARPIKVESAP [P12A]: -0.615
PHLARPIKVASPP [E10A]: -0.498
PALARPIKVESPP [H2A]: -0.199
PHAARPIKVESPP [L3A]: 0.154

A few entries again (sample 2):
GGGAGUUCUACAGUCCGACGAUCUGUUUUGUACAGGACCUUCCUCUGUACCAGUUUGUUGUGGUUAUAAAGCAAUUAGCAAAUCAGCUUACAUUUGUAUUUAUUUUCUGUCCCAUACUUUUCUCUGCCUCAUGUUUUUUUUUUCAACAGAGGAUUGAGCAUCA: 0.759 ratio
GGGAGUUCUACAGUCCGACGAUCUUUUAAGGUUUUUUAAUUUAUUUUUCGUUUUCUUUUGGGGGUAAAGUUUGCUCUACCAAAUAGUGAUCGUAACAAACUGAUCUGUUAUGGAUGUUGCUAUAGUGACAUGCAAUUAUAUAUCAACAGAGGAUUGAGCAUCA: 0.971 ratio
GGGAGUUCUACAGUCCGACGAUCGUGACUUUGGACGUCCGCUCAGCCGGGUUGCAGAAGCCGCUUGGUGUGUGUCCCGUGCUCGUUCUCCUGUCUCUGGAGGUAGGCCUCUGCCGCAAACAUGCUCCGUCAGAUCAUCGGGCACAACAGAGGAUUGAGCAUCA: 0.277 ratio
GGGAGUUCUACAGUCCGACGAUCUCGGGUGUCCCUGUGGGGUGCUGUCGGCCCCUUAGAGUCGUUUGAUUUGUGACCUUGACAUAAUAGAUAGGCUUGUGGUUUUUUUAAUUUAAAGAUAUUAAGACUUAAUUCACUAAAAUUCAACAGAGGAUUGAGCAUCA: 0.609 ratio
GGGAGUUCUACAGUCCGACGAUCCACAUCCGGUGAUAUUUGGCCUGGCCUUUCGGCUUAUGAUAAUAGUCCCAGAUCACCCCAUAGUCCUUCACCUAUUGCUACACCACCUAGUCAGAGUUCAUCUUGCUCUGAUGCUCCCAUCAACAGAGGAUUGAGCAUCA: 0.792 ratio
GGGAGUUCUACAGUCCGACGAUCGAGCUAAAGGAGUUAGCAUCUUUAUUUUUGUAUCAAAGAUAAAGGUUAUUUUGAAACUAUUAGGAUUUUUACACAAUUCUGAAAUCUGUUGCUUUUGUAAACAAAUUGUUUGAUCUUAGUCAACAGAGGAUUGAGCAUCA: 0.443 ratio
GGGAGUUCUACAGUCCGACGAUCCCUGGAUAUCAGUUAGAAUGGGUUCUUCUUCUACUUCUCUCACAAGGGAAAAAGCCCCAAUAGAUUCCUUACACAUCUGAUGAUACUGUUCUGUCUCAUUUUCUGUUUUUACAUAGGCAUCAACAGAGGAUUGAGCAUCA: 0.504 ratio
